Measurements pooled from the literature.
Compare with care: the assays were run in different laboratories. “And” joins repeats or separate records; there may be more than shown. Numbers after ± are the reported error.

| Substance | assay | test system | setting | half-life |
| --- | --- | --- | --- | --- |
| CN[C@@H]1[C@H](O)[C@H](NC)[C@H]2O[C@]3(O)[C@H](O[C@@H]2[C@H]1O)O[C@H](C)C[C@@]3(O)CNCc1ccc(F)cc1 |  | rat | intravenous, 10 mg/kg | 1.12 h |
| CCC(CC)[C@H](NC(C)=O)[C@@H]1[C@H](O)[C@@H](C(=O)OCCOC(=O)[C@@H](N)C(C)C)C[C@H]1NC(=N)N |  | male Sprague-Dawley rats, rat intestinal fluid | 80 µg/mL, pH 6.6, 37 °C | 2.68 ± 0.2 h |
| COC(=O)C(Cc1c[nH]cn1)NC(=O)C1(C)C(O)CCC2(C)C1CCC1(C)C2CC=C2C3C(C)C(C)CCC3(C)CCC21C (stereo not drawn) |  | rat, fecal matter in phosphate buffer | 12 h, 37 °C | 12.1 h |
| CCCCCCCCCCCCCCCC(=O)NCCOCCOCCOCCOCCOCCOCCOCCOCCC(=O)NCCCC[C@H](NC(=O)CNC(=O)[C@@H]1CSSC[C@H](N)C(=O)N[C@@H](Cc2ccc(O)cc2)C(=O)N[C@@H]([C@@H](C)CC)C(=O)N[C@@H](CCC(N)=O)C(=O)N[C@@H](CC(N)=O)C(=O)N1)C(=O)NCC(N)=O |  | male Wistar Hannover rat, plasma | intravenous bolus, 0.1 mg/kg | 8.5 h |
| COC(=O)/C=C/C(=O)c1ccc(OC)cc1 |  | Sprague-Dawley rat, both sexes, plasma | oral, 100 mg/kg | 7.17 ± 0.56 h |
| Ac-CSNLSTCXLGRLSQDLHRLQTYPKTDVGANAP-NH2 (N-acetyl, C-amide) | ELISA | peptide, high-fat diet Sprague Dawley rats, plasma | subcutaneous, 4 nmol/kg | 0.44 ± 0.1 h |
| COc1cccc(-c2n[nH]c([S+]([O-])Cc3ccccn3)n2)c1OC (stereo not drawn) |  | Sprague-Dawley rat, male and female, plasma | oral, 100 mg/kg of parent drug | 2.56 to 3.05 h |
| CC1(C)C2CCC1(C)C(OC(=O)/C=C/c1ccc(O)c(O)c1)C2 (stereo not drawn) |  | Sprague-Dawley rat, plasma | oral, 30 mg/kg, /2α1 | 0.17 ± 0.04 h |
| N[C@@H](COc1ccccc1C(F)(F)F)c1ccccc1 |  | male Sprague-Dawley rat | oral, 25 mg/kg | 5.3 h |
| CN1CCN(c2ccc(Nc3ncc(Cl)c(Nc4ccccc4P(C)(C)=O)n3)cc2Br)CC1 |  | Sprague-Dawley rat, male, plasma | oral, 25 mg/kg | 26.6 h and 12.1 h and 7.1 h |
| CN(Cc1ccc(/C=C/C(=O)Nc2ccccc2N)cc1)CC12CC3CC(CC(C3)C1)C2 | LC-MS/MS | rat, brain | 1 mg/kg | 6.8 h |
| COc1cccc(-c2n[nH]c(SCc3ccccn3)n2)c1O |  | Sprague-Dawley rat, male and female, plasma | oral, 100 mg/kg of parent drug | 3.67 h |
| COc1cc(C=CC(=O)OCC2OC(OC3C(c4c(OC)cc5oc(-c6ccc(O)cc6)cc(=O)c5c4O)OC(CO)C(O)C3O)C(O)C(O)C2O)ccc1O (stereo not drawn) |  | male Sprague-Dawley rat, normal, plasma | oral, 6.8 g/kg | 1.87 ± 1.1 h |
| Cc1ccc(OCC(=O)N(Cc2cccs2)c2ccn[nH]2)cc1 |  | Sprague-Dawley rat, both sexes, plasma | intravenous, 1 mg/kg | 0.25 to 0.3 h |
| Cc1noc(C)c1Cn1cc(N2C(=O)CN(Cc3cccc(OS(=O)(=O)O)c3)C2=O)cn1 |  | rat Sprague-Dawley male, plasma | oral, 100 mg/kg of parent drug | 4.7 h |
| CC(C)C[C@@H]1NC(=O)[C@H](C(C)C)NC(=O)[C@H](CC(N)=O)NC(=O)[C@H](CO)NC(=O)[C@H](CO)NC(=O)[C@H](CC(=O)O)NC(=O)[C@H](CC(=O)O)NC(=O)[C@H](Cc2ccccc2)NC(=O)[C@H](Cc2ccc(O)cc2)NC(=O)[C@@H](N)CSSC[C@@H](C(=O)N[C@@H](CCCCN)C(=O)N[C@@H](CCCCN)C(=O)N[C@@H](Cc2ccc(O)cc2)C(=O)N[C@@H](CCCNC(=N)N)C(=O)N[C@@H](CO)C(=O)O)NC1=O |  | Sprague-Dawley rat, male, plasma | 0.1 mg/mL, 37 °C, in vitro stability | 5.97 h |
| COc1cc2oc(-c3ccc(O)cc3)cc(=O)c2c(O)c1[C@@H]1O[C@H](CO)[C@@H](O)[C@H](O)[C@H]1O[C@@H]1O[C@H](CO)[C@@H](O)[C@H](O)[C@H]1O |  | male Sprague-Dawley rat, PCPA-induced insomnia, plasma | oral, 6.8 g/kg | 2.75 ± 0.92 h |
| Cc1noc(C)c1Cn1cc(N2C(=O)CN(Cc3cccc(O[C@@H]4O[C@H](C(=O)O)[C@@H](O)[C@H](O)[C@H]4O)c3)C2=O)cn1 |  | rat Sprague-Dawley male, plasma | oral, 30 mg/kg of parent drug | 1.7 h |
| CC(C)CNC(=O)/C=C/CCc1ccc2c(c1)OCO2 |  | rat, sham-operated, plasma | oral, 50 mg/kg | 3.92 ± 1.87 h |
| NC(=O)c1cnc2[nH]ccc2c1NC1C2CC3CC1CC(OS(=O)(=O)O)(C3)C2 (stereo not drawn) |  | Japanese adults, moderate hepatic impairment, plasma | oral, 150 mg single dose | 12.2 h |
| CCC(CC)[C@H](NC(C)=O)[C@@H]1[C@H](O)[C@@H](C(=O)N[C@H](C(=O)O)[C@@H](C)CC)C[C@H]1NC(=N)N |  | male Sprague-Dawley rats, rat gastric fluid | 100 µg/mL, pH 1.3, 37 °C | 27.6 ± 0.6 h |

Some of these lines once more:
| Substance | assay | test system | setting | half-life |
| --- | --- | --- | --- | --- |
| CCC(CC)[C@H](NC(C)=O)[C@@H]1[C@H](O)[C@@H](C(=O)OCCOC(=O)[C@@H](N)C(C)C)C[C@H]1NC(=N)N |  | male Sprague-Dawley rats, rat intestinal fluid | 80 µg/mL, pH 6.6, 37 °C | 2.68 ± 0.2 h |
| COC(=O)C(Cc1c[nH]cn1)NC(=O)C1(C)C(O)CCC2(C)C1CCC1(C)C2CC=C2C3C(C)C(C)CCC3(C)CCC21C (stereo not drawn) |  | rat, fecal matter in phosphate buffer | 12 h, 37 °C | 12.1 h |
